Published values pooled from the literature.
Compare with care: the assays were run in different laboratories. Several values in a cell are separate wells, animals, samples, runs or records. Numbers after ± are the reported error.

| Structure (SMILES) | test | system | setting | scale | endpoint | value |
| --- | --- | --- | --- | --- | --- | --- |
| CN(C(=O)CN1C(=O)COc2cc(Cl)c(Cl)cc21)[C@@H](CN1CCCC1)c1ccc(-c2cccc(C(N)=O)c2)cc1 | open field test | humanized UT (+/h+) mice | dose not given | – | distance travelled | 28 m and 30 m and 31 m and 20 m and 22 m and 33 m |
| C[C@H](NC(=O)c1c(C(F)F)nn(C)c1Oc1cccc(C(F)(F)F)c1)c1ccc(C(=O)O)cc1 | – | human, advanced tumours | 250 mg | – | median overall survival | 4 months |
| [Cl][Ru-]([Cl])([Cl])[Cl].[Na+].c1ccc2[nH]ncc2c1.c1ccc2[nH]ncc2c1 | CT, RECIST 1.1 | human | 780 mg/m2 | relative to: baseline | maximum change in target lesions | 6.7% |
| CS(=O)(=O)c1ccc(-c2nnc(/C=C/c3nnc(-c4ccc(C#N)cc4)o3)n2-c2ccccc2Cl)nc1 | RNA-seq GSEA, item: HALLMARK_MYC_TARGETS_V2 | organoids, small intestinal, Apc Q1405X, mouse | dose not given, wild-type organoids | relative to: DMSO, direction not given | normalized enrichment score | -1.88 |
| C[C@]1(CO)Cc2ncn(-c3ccc(C#N)c(Cl)c3)c2C(=O)O1 | – | Japanese subjects | 20 mg single dose | – | urinary sodium excretion 0-24 h | 137 mmol |
| CC[C@H](C)[C@@H]1NC(=O)[C@@H]2CCCN2C(=O)[C@H](CC(C)C)NC(=O)[C@H](CC(C)C)NC(=O)CNC(=O)[C@@H](NC(=O)[C@@H](NC(=O)[C@H](CC(=O)O)NC(=O)CNC(=O)[C@@H](NC(=O)[C@H](C)NC(=O)CNC(=O)[C@H](CCCCN)NC(=O)[C@H](CC(C)C)NC(=O)[C@H](CC(C)C)NC(=O)[C@H](CCCCN)NC(=O)CNC(=O)[C@@H](NC(=O)[C@@H](N)CC(C)C)C(C)C)C(C)C)C(C)C)CSSC[C@@H](C(=O)O)NC1=O | RNA-seq, item: Dclre1a | mouse, traumatic brain injury model, frontal cortex and hippocampus | dose not given | relative to: TBI alone | log2 fold change | 0.617 |
| C=CC(=O)Nc1cc(Nc2ncc(Cl)c(Nc3ccccc3C(=O)C(=O)N(C)C)n2)c(OC)cc1N1CCN(C)CC1 | RECIST v1.1 best response | human EGFR T790M NSCLC | oral, 100 mg/day, per-protocol set | – | patients with stable disease | 0% |
| CCCCC1(CCCC)CN(c2ccccc2)c2cc(SC)c(OCC(=O)N[C@@H](C(=O)NCC(=O)O)c3ccccc3)cc2S(=O)(=O)C1 | item: LDL cholesterol | human, serum | 2.5 mg once daily, day 5 | – | serum LDL-C | 106 mg/dL |
| Nc1ccccc1C(=O)[O-].[Na+] | binding, equilibrium dialysis LC-MS | – | 5 µM, thermostabilized A2AR-BRIL construct | relative to: no-protein control, direction not given | z-scored log2 fold change | -0.0241 |
| C[C@H]1O[C@@H](O[C@H]2CC[C@@]3(C)[C@@H](CC[C@]4(C)[C@@H]3C=C[C@]35OC[C@@]6(CCC(C)(C)C[C@H]63)[C@@H](O)C[C@]54C)[C@]2(C)CO)[C@H](O)[C@@H](O[C@@H]2O[C@H](CO)[C@@H](O)[C@H](O)[C@H]2O)[C@H]1O | Western blot, item: PPAR-α | mouse, AAV8-TBG-Null control vector, liver | dose not given, high dose, unit not given, with: ethanol | relative to: β-actin | protein level | 0.952 and 0.52 and 0.551 |
| Cc1cn(-c2cc(NC(=O)c3ccc(C)c(Nc4nccc(-c5cccnc5)n4)c3)cc(C(F)(F)F)c2)cn1 | – | human patients | dose not given, 12 to 6 months, within treated group, unit not given | relative to: baseline | ADAS-Cog maze time change | 3.68 |
| O=C(N=Nc1c(O)n(CCCCCF)c2ccccc12)c1ccccc1 | – | C57BL/6 mice trained on THC | intraperitoneal, 3 mg/kg, THC 5.6 mg/kg discrimination | relative to: vehicle | response rate | increased |
| Clc1cc2c(cc1Cl)Oc1cc(Cl)c(Cl)cc1O2 | RNA-Seq, item: Cyp4a1 | female Sprague-Dawley rat, liver | dose not given | relative to: vehicle | mRNA level | 2.3 fold |
| CN1CCN(S(=O)(=O)c2cc([N+](=O)[O-])ccc2N(CCOS(C)(=O)=O)CCOS(C)(=O)=O)CC1 | – | NSG mice, sample DC PDX | intraperitoneal, 25 mg/kg weekly x3 | relative to: treated over vehicle | EFS ratio (T/C) | > 8.6 |
| CCOC(=O)c1ncn2c1CN(C)C(=O)c1cc(F)ccc1-2 | food-maintained responding | rhesus monkey | intramuscular, acute dependence model, with: midazolam pretreatment 30 min | relative to: midazolam alone | minimum effective dose | 1 mg/kg |
| [131I-].[Na+] | – | hyperthyroidism patients | 185 MBq, long-term follow-up | – | patients requiring second ablation | ~14% |
| N.N.[Cl][Pt][Cl] | western blot, item: GLUL, CPS1, GGT1, SLC1A5 | SGC-7901 resistant to compound, BALB/c nude mouse xenograft, tumour tissue | dose not given, 21 days | relative to: vehicle | protein expression | decreased |
| CC(=O)c1c(C)c2cnc(Nc3ccc(C4CCN(CCS(C)(=O)=O)CC4)cn3)nc2n(C2CCCC2)c1=O | RECIST v1.1 | HR+/HER2- advanced breast cancer patients | dose not given, phase Ib all arms pooled | – | best response partial response | 39.5% |
| CCCCCOc1ccc(-c2ccc(-c3ccc(C(=O)N[C@H]4C[C@@H](O)[C@@H](O)NC(=O)[C@@H]5[C@@H](O)[C@@H](C)CN5C(=O)[C@H]([C@@H](C)O)NC(=O)[C@H]([C@H](O)[C@@H](O)c5ccc(O)cc5)NC(=O)[C@@H]5C[C@@H](O)CN5C(=O)[C@H]([C@@H](C)O)NC4=O)cc3)cc2)cc1 | calcein leakage | DOPC/DOPG/CHOL liposomes | concentration not given, with: 20 wt% PEG-8000 | – | maximum fusion | 2 ± 2% |
| CCCc1nn(C)c2c(=O)[nH]c(-c3cc(S(=O)(=O)N4CCN(C)CC4)ccc3OCC)nc12 | – | human patients on drug, serum or plasma | dose not given, on:off matching 1:10 | relative to: off-drug patients, 5.94 mg/dL | mean serum uric acid | 6.97 mg/dL |
| Cc1nc(Nc2ccc(CC(=O)O)cc2)nc(Nc2ccc(F)c(C(F)(F)F)c2)c1C | – | mice, chronic ethanol plus binge | intraperitoneal, 0.3 mg/kg daily, ethanol diet 4 weeks, dosed last two | relative to: vehicle | serum ALP | no effect |
